Results collected from several papers.
Protocols differ between the studies behind these lines. Numbers after ± are the reported error.
MCOLN3: Mucolipin-3 (MCOLN3, Homo sapiens, UniProt Q8TDD5)
Chain of UniProt Q8TDD5 (whole entry, looked up): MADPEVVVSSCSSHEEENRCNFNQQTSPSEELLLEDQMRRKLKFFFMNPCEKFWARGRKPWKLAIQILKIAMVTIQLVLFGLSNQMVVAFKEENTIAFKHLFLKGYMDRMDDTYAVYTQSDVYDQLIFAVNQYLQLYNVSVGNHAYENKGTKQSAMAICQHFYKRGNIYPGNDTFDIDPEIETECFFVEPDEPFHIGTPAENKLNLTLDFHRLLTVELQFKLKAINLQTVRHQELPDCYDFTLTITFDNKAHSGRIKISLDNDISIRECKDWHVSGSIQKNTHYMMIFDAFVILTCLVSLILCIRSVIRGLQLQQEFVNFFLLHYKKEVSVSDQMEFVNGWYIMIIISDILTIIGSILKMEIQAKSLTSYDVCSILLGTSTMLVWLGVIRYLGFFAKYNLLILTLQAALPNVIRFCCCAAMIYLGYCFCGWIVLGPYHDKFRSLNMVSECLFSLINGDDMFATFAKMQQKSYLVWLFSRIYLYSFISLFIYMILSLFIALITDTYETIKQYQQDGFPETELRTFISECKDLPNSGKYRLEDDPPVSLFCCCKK
Vcp: Transitional endoplasmic reticulum ATPase (Vcp, Mus musculus, UniProt Q01853)
Chain of UniProt Q01853 (whole entry, looked up): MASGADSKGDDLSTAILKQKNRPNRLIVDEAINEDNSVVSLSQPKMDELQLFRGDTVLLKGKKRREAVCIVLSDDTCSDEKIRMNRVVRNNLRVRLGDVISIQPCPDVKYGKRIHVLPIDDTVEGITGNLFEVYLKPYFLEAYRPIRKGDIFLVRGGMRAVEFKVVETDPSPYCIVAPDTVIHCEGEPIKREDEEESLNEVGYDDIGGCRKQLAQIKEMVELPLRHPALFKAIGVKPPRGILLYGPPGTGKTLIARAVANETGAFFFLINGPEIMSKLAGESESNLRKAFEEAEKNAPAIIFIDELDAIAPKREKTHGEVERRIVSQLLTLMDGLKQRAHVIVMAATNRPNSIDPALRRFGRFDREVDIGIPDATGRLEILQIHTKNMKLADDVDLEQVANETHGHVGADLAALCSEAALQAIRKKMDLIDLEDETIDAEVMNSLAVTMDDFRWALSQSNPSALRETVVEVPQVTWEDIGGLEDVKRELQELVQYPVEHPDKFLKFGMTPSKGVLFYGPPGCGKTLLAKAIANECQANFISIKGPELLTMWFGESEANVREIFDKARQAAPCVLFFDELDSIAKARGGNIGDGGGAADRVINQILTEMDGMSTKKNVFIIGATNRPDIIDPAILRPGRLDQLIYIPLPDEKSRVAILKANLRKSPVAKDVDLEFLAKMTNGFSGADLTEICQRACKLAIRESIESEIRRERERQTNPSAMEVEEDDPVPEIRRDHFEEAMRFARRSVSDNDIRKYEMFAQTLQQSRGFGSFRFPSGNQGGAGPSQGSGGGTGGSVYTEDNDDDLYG
TRPV1: Transient receptor potential cation channel subfamily V member 1 (TRPV1, Homo sapiens, UniProt Q8NER1)
Chain of UniProt Q8NER1 (whole entry, looked up): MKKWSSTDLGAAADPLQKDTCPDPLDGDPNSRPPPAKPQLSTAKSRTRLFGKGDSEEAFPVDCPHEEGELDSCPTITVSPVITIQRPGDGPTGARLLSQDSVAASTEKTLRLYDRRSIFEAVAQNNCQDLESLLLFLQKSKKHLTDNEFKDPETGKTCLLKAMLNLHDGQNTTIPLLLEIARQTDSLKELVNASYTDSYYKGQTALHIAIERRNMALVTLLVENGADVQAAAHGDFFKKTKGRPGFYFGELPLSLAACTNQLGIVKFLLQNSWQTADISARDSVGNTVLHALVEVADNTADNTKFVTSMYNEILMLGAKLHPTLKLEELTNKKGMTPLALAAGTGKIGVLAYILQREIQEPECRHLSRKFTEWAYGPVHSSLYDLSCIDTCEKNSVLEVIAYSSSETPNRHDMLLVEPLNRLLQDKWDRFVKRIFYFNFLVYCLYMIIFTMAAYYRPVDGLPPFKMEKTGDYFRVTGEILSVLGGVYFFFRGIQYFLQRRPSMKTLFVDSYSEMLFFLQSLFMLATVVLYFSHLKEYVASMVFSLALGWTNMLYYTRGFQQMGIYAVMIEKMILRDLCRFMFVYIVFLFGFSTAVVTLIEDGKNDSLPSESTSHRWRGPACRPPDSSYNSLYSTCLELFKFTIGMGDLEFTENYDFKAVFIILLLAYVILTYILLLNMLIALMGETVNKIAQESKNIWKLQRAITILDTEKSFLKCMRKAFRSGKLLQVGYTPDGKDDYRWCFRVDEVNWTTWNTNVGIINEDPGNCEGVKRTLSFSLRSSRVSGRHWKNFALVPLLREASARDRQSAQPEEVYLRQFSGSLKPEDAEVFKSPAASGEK
Chain of UniProt Q5NUL3 (whole entry, looked up): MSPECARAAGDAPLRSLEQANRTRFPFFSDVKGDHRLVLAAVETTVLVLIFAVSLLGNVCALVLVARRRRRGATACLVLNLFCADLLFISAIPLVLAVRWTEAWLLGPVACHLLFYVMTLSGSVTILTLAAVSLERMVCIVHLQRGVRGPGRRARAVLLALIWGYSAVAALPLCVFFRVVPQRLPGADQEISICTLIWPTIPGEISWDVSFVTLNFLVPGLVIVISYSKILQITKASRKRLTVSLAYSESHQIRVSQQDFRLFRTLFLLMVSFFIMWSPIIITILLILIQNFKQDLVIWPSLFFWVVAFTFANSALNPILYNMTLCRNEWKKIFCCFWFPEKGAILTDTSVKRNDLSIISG
Chain of UniProt Q9GZU1 (whole entry, unmodified, looked up): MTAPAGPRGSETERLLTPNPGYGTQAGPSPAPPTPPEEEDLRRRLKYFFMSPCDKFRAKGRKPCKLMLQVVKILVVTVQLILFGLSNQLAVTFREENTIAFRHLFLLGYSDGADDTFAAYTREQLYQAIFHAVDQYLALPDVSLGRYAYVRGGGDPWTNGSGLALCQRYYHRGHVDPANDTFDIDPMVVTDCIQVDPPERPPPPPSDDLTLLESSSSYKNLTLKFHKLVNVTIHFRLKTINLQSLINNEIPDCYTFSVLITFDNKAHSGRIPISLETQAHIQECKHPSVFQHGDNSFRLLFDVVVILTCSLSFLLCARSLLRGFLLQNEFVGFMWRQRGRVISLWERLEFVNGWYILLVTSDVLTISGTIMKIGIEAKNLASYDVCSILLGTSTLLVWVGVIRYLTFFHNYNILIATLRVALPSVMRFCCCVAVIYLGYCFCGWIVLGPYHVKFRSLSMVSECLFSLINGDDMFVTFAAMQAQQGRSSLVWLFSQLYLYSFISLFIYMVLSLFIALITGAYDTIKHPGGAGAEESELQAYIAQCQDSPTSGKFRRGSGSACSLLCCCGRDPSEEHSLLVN
Chain of UniProt O75469 (whole entry, looked up): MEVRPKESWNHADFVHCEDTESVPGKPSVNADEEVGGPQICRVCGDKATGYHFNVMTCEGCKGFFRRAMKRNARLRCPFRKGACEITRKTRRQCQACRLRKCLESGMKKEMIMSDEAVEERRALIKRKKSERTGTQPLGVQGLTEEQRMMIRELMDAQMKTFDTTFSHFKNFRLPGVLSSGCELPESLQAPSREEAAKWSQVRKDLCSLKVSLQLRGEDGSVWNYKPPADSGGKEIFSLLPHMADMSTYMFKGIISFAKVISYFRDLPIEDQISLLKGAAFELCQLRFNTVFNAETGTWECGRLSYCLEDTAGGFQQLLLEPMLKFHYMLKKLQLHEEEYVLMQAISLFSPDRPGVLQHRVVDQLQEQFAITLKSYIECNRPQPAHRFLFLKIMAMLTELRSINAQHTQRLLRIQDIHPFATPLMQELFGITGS
Chain of UniProt Q8NE86 (whole entry, looked up): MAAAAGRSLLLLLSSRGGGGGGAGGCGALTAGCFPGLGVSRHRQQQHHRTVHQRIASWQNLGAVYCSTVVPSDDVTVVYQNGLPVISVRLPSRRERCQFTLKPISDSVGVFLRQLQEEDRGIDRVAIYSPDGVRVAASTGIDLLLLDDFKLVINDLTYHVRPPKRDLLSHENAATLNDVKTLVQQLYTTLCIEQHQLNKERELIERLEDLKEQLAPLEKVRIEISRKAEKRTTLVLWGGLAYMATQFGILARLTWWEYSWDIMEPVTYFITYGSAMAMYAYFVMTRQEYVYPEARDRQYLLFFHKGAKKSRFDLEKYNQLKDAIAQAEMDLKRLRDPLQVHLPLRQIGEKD
Chain of UniProt P56373 (whole entry, looked up): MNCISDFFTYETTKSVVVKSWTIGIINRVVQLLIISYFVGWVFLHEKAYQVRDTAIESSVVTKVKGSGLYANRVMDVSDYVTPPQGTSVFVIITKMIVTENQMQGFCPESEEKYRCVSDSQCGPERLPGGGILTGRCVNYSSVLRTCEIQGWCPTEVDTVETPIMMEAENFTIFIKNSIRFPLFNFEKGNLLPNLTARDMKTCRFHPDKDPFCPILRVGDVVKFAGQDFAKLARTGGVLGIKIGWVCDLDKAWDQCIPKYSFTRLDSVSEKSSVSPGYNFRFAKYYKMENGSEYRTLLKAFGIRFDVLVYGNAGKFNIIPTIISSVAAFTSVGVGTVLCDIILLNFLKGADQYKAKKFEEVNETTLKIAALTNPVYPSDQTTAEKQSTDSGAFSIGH
Chain of UniProt Q00195 (whole entry, unmodified, looked up): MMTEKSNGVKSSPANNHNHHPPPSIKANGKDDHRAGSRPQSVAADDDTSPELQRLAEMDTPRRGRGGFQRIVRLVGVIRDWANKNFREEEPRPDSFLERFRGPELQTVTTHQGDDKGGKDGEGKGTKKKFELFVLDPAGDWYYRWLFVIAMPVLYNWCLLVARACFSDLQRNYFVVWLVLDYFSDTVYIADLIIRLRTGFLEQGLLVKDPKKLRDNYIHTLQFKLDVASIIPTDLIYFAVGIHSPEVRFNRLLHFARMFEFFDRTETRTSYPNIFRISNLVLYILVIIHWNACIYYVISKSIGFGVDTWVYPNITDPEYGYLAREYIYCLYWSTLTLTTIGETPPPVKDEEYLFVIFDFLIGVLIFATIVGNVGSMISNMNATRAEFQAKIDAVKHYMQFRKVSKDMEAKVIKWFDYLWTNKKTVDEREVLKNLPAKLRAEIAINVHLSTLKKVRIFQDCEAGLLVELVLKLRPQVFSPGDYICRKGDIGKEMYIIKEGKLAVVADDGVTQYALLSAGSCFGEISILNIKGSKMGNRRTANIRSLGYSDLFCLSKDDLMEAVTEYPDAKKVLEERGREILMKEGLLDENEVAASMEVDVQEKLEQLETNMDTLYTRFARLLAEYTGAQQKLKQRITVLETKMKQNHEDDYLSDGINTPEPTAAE

Substance	target	test	test system	setting	how to read	EC50 [nM]
Nc1ncnc2c1ncn2[C@@H]1O[C@H](COP(=O)(O)OP(=O)(O)OP(=O)(O)O)[C@@H](O)[C@H]1O	P2X purinoceptor 3, with TMEM163 (P2RX3, Homo sapiens, UniProt P56373)	ion current, agonist, two-electrode voltage clamp	Xenopus oocytes	holding potential -30 mV, together with: TMEM163 co-expression		260 ± 30
Cc1cc(C)c(C2=NOC3C4CCC(C4)C23)c(C)c1 (stereo not shown)	MCOLN3	calcium flux, agonist, Fluo-8 calcium	HEK293 expressing TRPML3			1130 ± 160
CC1(C)C(/C=C/C=C2\N(CCCCCC(=O)NCCCC[C@H](NC(=O)N[C@H](CCC(=O)O)C(=O)O)C(=O)O)c3ccc(S(=O)(=O)O)cc3C2(C)C)=[N+](CCCCCC(=O)NCCCCn2cc(C[N+](C)(C)C[B-](F)(F)F)nn2)c2ccc(S(=O)(=O)O)cc21	FOLH1 (Homo sapiens, UniProt Q04609)	binding, flow cytometry	PC3-PIP	1 h, 37 °C		6.74 ± 1.33
Clc1ccc2[nH]c3c(N4CCC5(CC4)OCCO5)ncnc3c2c1	Vcp	ATPase activity, activator, Kinase-Glo		Vcp 50 nM, together with: ATP 62.5 µM		2410
Cc1cc(OCCCS(C)(=O)=O)cc(C)c1-c1cccc(COc2ccc3c(c2)OC[C@H]3CC(=O)O)c1	FFAR4 (Homo sapiens, UniProt Q5NUL3)	agonist, dynamic mass redistribution	CHO cells expressing FFA4	5 min		> 20000
Cc1ccccc1S(=O)(=O)c1c(C)cc(C)n(C(C)C)c1=O	MCOLN3	calcium flux, agonist, Fluo-8 calcium	HEK293 expressing TRPML3			2290 ± 190
Cc1ccc(C(C)C)cc1O	TRPV3 (Homo sapiens, UniProt Q8NET8)	ion current, agonist, patch clamp				180000
CCCOc1cc(C)c(Cl)cc1S(=O)(=O)N(CC)CC	MCOLN3	calcium flux, agonist, Fluo-8 calcium	HEK293 expressing TRPML3			4790 ± 1090
CC[S+]([O-])c1nc(-c2cccc(OCc3ccccc3)c2)cc(C(F)(F)F)n1 (stereo not shown)	GLP1R (Homo sapiens, UniProt P43220)	agonist	human cells			~500
CC1CCN(c2nc(C(F)(F)F)ccc2CNC(=O)NC(C)c2ccc(NS(C)(=O)=O)c(F)c2)CC1 (stereo not shown)	TRPV1	45Ca2+ uptake, agonist	CHO expressing human TRPV1		baseline: capsaicin 1 µM maximal response	> 3000
O=C(/C=C/C=C/c1ccc2c(c1)OCO2)N1CCCCC1	NR1I2 (Homo sapiens, UniProt O75469)	CYP3A4 promoter reporter, agonist	LS174T transfected with CYP3A4-luc, no PXR	24 h		670
Nc1nc2c(ncn2[C@@H]2O[C@@H]3COP(=O)(O)O[C@H]3[C@H]2O)c(=O)[nH]1	Cnga2 (Rattus norvegicus, UniProt Q00195, G204E)	channel current, agonist, inside-out patch clamp	Xenopus oocytes	holding +100 mV		1800
Cc1ccc(N2CCN(S(=O)(=O)N3CCCCC3)CC2)c(C)c1	MCOLN3	calcium flux, agonist, Fluo-8 calcium	HEK293 expressing TRPML3			2110 ± 690
JAK inhibitor I	Serine/threonine-protein kinase/endoribonuclease IRE1 (Mus musculus, UniProt Q9EQY0, N772Y)	RNase activity, activator, gel-based RNA cleavage				190
CC1CCN(c2nc(C(F)(F)F)ccc2CNC(=O)N(C)c2ccc(NS(C)(=O)=O)c(F)c2)CC1	TRPV1	45Ca2+ uptake, agonist	CHO expressing human TRPV1		baseline: capsaicin 1 µM maximal response	> 3000
CCCC(=O)OC[C@H](COP(=O)(O)O[C@@H]1[C@H](O)[C@H](O)[C@@H](OP(=O)(O)O)[C@H](OP(=O)(O)O)[C@H]1O)OC(=O)CCC	Arf-GAP with SH3 domain, ANK repeat and PH domain-containing protein 1, PH domain (Asap1, Mus musculus, UniProt Q9QWY8)	tryptophan fluorescence		pH 7.4		120000
CC1CC(C)(C)N(C(=O)CN2C(=O)c3ccccc3C2=O)c2ccccc21 (stereo not shown)	Mucolipin-1 (MCOLN1, Homo sapiens, UniProt Q9GZU1, L15A/L16A)	ion current, agonist, whole-cell patch clamp	HEK293 tetracycline-inducible	pH 4.6, raised competitor concentration		~20000
CCCC(=O)Oc1c(S(=O)(=O)c2ccc(C)cc2)c(C)nn1C(C)(C)C	MCOLN3	calcium flux, agonist, Fluo-8 calcium	HEK293 expressing TRPML3			2520 ± 830
CCC[C@H](C(=O)Nc1ccc(Br)cc1)n1nc(C)cc(Cc2cccc(OC)c2)c1=O	FPR1 (Homo sapiens, UniProt P21462)	calcium mobilization, agonist	HL-60 transfected with FPR1			3000
CC(C)C[C@H](NC(=O)[C@@H](O)[C@H](N)Cc1ccccc1)C(=O)N1CCC[C@H]1C(=O)N1CCC[C@H]1C(=O)NCCOCCOCC(=O)NC[C@H](NC(=O)CN(C)C)C(=O)N[C@@H](CS)C(N)=O	Aminopeptidase N (ANPEP, Homo sapiens, UniProt P15144)	enzyme activity, inhibitor	HT-1080	30 min, together with: Ala-pNA 2 mM		23600
O=C(CSc1nc2ccccc2c(=O)n1NC(=O)c1ccccc1)c1ccc(Cl)cc1	Vcp	ATPase activity, activator, Kinase-Glo		Vcp 50 nM, together with: ATP 62.5 µM		1570
O=S(=O)(Oc1cccc2ccccc12)C1CC2OC1C(c1ccc(O)cc1)=C2c1ccc(O)cc1 (stereo not shown)	Estrogen receptor (ESR1, Homo sapiens, UniProt P03372)	reporter gene, agonist, luciferase				46
NCCCNCCCCNCCCN	MCU/MICU1, with EMRE and MICU2 (Homo sapiens, UniProt Q8NE86+Q9BPX6)	mitochondrial calcium uptake, activator, Fluo-4 fluorescence	permeabilized HEK293	pH 7.2, together with: 5 mM succinate		201000
CC1CCN(c2nc(C(F)(F)F)ccc2CNC(=O)Nc2ccc(CNS(C)(=O)=O)c(F)c2)CC1	TRPV1	45Ca2+ uptake, agonist	CHO expressing human TRPV1		baseline: capsaicin 1 µM maximal response	> 3000
TWPKHFDKHTFYSILKLGKH-OH (C-acid)	LRP1, cluster 4 (Homo sapiens, UniProt Q07954)	binding, plate ELISA	peptide	biotinylated peptide, CL4-Fc fusion		45
CC(C)(C)c1ccc(-c2nc3n(c(=O)c2C#N)CCCS3)cn1	Glutamate NMDA receptor; Grin1/Grin2b (Grin1/Grin2b, Rattus norvegicus, UniProt P35439+Q00960)	ion current, agonist, two-electrode voltage clamp		oocytes		5000
O=S(=O)(NC1CCCCC1N1CCOCC1)c1ccc(Cl)cc1 (stereo not shown)	MCOLN3	calcium flux, agonist, Fluo-8 calcium	HEK293 expressing TRPML3			< 1000
CC1=NN(CC(=O)Nc2ccc(Br)cc2)C(=O)CC1c1ccccc1 (racemic)	fMet-Leu-Phe receptor (Mus musculus, UniProt P33766)	calcium signal, agonist				2300

Excerpt of the above:
Substance	target	test	test system	setting	how to read	EC50 [nM]
CC1(C)C(/C=C/C=C2\N(CCCCCC(=O)NCCCC[C@H](NC(=O)N[C@H](CCC(=O)O)C(=O)O)C(=O)O)c3ccc(S(=O)(=O)O)cc3C2(C)C)=[N+](CCCCCC(=O)NCCCCn2cc(C[N+](C)(C)C[B-](F)(F)F)nn2)c2ccc(S(=O)(=O)O)cc21	FOLH1 (Homo sapiens, UniProt Q04609)	binding, flow cytometry	PC3-PIP	1 h, 37 °C		6.74 ± 1.33
CCCC(=O)Oc1c(S(=O)(=O)c2ccc(C)cc2)c(C)nn1C(C)(C)C	MCOLN3	calcium flux, agonist, Fluo-8 calcium	HEK293 expressing TRPML3			2520 ± 830
